Measurements collected from several papers.
Numbered parts are unrelated; each lists some results of a single study.
Chain of UniProt P61075 (whole entry, looked up): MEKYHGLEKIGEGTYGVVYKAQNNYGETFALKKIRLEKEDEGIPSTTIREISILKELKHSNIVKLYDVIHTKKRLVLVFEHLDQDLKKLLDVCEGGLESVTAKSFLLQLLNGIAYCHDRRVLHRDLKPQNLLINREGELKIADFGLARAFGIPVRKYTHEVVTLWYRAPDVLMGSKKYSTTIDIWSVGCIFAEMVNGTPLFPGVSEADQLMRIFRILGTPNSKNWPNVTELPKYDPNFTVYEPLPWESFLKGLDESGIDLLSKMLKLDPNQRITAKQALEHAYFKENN
Chain of UniProt P42681 (whole entry, looked up): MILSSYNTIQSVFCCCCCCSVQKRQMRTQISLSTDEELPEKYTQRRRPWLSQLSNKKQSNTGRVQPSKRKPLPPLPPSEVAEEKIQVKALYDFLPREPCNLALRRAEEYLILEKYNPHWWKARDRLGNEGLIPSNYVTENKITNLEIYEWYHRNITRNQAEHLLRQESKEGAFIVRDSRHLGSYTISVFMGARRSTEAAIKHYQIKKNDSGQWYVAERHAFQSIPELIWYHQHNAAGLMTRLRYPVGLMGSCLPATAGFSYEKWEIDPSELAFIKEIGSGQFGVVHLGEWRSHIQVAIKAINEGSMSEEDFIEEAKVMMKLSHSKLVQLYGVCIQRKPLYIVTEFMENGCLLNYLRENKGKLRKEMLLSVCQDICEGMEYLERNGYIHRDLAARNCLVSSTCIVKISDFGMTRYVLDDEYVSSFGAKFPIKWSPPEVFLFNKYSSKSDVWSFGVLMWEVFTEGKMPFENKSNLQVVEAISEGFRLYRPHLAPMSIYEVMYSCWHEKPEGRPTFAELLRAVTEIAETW
Chain of UniProt Q15746 (whole entry, looked up): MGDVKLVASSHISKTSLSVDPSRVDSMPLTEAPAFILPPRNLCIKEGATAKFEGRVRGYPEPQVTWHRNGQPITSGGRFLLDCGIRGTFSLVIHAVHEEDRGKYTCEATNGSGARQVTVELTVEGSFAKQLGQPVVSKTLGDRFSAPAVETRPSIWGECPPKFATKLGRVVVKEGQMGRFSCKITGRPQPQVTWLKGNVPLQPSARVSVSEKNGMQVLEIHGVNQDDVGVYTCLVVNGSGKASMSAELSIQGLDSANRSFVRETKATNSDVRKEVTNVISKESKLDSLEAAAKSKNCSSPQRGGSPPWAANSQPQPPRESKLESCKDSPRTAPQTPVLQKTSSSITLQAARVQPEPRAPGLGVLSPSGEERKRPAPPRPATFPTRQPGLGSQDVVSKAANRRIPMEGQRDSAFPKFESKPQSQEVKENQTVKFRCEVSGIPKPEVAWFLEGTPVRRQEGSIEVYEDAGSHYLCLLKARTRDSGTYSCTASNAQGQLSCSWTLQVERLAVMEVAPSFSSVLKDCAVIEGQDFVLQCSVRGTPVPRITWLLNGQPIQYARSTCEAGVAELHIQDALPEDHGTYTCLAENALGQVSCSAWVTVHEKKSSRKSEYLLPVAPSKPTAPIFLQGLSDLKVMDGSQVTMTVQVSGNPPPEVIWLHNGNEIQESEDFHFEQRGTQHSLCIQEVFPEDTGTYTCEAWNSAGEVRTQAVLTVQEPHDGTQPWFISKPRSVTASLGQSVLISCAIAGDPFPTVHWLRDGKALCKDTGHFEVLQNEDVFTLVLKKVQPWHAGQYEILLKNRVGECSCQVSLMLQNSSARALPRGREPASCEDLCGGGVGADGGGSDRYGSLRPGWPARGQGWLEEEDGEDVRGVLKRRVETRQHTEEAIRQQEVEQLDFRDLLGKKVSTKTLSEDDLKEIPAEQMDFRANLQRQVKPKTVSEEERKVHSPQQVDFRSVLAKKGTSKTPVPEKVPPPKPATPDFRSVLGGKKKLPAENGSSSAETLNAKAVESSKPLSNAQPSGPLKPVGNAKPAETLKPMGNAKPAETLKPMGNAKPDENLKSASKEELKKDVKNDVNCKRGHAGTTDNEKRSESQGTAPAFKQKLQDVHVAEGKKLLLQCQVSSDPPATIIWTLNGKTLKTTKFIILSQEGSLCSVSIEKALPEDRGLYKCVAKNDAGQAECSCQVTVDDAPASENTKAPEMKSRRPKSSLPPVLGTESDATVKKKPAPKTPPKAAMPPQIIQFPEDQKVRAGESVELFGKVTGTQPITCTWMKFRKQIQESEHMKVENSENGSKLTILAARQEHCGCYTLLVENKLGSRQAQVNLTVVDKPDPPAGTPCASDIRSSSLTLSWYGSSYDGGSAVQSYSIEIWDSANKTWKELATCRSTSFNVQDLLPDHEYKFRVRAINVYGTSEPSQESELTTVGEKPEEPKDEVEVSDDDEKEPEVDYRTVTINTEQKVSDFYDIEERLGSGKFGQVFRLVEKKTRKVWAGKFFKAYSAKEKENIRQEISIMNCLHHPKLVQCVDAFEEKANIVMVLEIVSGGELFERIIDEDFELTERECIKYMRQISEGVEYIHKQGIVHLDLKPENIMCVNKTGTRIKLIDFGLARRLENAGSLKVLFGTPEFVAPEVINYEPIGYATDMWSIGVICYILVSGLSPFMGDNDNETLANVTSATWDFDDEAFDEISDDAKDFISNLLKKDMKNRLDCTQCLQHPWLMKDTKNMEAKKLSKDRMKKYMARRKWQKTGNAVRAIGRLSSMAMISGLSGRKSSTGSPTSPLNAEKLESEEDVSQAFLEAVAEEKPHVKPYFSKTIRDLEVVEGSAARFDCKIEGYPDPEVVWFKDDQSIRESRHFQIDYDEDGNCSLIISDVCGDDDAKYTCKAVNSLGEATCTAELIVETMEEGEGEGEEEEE
Chain of UniProt Q96L34 (whole entry, looked up): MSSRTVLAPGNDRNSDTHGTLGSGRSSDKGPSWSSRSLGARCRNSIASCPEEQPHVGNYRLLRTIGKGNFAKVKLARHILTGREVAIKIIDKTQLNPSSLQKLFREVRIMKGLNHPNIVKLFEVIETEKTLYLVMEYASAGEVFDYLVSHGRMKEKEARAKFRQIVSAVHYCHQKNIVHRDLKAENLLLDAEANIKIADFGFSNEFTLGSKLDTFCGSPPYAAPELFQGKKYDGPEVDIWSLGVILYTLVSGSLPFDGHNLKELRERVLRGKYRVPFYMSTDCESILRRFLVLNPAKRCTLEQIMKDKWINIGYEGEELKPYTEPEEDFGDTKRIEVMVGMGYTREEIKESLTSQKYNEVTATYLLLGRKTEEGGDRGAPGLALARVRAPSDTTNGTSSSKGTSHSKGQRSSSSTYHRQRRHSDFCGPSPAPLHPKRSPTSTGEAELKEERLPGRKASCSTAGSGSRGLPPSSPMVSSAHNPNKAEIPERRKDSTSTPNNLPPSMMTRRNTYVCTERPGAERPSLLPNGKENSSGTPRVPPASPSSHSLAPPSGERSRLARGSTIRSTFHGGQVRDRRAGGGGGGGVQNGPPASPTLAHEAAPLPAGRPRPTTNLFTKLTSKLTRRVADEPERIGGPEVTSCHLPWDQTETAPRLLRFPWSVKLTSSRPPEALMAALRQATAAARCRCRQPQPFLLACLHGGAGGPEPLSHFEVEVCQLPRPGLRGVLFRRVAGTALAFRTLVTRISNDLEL
Chain of UniProt O75716 (whole entry, looked up): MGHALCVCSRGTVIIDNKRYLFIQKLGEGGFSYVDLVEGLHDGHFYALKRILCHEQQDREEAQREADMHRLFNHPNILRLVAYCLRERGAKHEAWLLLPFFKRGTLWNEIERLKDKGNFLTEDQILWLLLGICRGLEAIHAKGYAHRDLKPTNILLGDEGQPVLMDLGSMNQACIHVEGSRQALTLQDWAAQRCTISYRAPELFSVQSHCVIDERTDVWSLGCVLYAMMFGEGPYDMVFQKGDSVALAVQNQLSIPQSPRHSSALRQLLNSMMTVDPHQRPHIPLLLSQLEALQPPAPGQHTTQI

Study 1
Cell line: normal-adjacent organoid sample F
Technique: CellTiter-Glo
Concentration: 1 µM
Notes: replicate mean
Baseline: DMSO
For `Cc1ccccc1Oc1cc(-n2c(=O)cc(C(F)(F)F)[nH]c2=O)c2ccccc2c1Cl`, the viability was 132%.
With `CC(=O)c1c(NS(C)(=O)=O)c2cc(-c3ccc(Cl)cc3)c(-c3ccc(Cl)cc3Cl)nc2n(C)c1=O` the viability was 111%.
With `Cn1nc(C(=O)NCc2ccc(C(=O)O)cc2)cc1-c1ccc2[nH]ccc2c1` the viability was 107%.
For `CC(=O)C1=C(C)N(c2cccc(C(F)(F)F)c2)C(=O)N[C@@H]1c1ccc(C#N)nc1`, the viability was 112%.
`O=C(NCCN1CCOCC1)c1ccc2c(c1)C(=O)c1ccc(Nc3ccc(F)c(NC(=O)c4ccccc4)c3)cc1CC2` gave a viability of 74.7%.
`CC1=C(C#N)C(c2ccc3[nH]nc(C)c3c2)C(C#N)=C(C)N1` has a viability of 112%.
For `O=C(O)[C@@H]1[C@@H](Cn2nnc3ccccc3c2=O)CC[C@H]1C(=O)c1ccc(OCCC2CCOCC2)cc1`, the viability was 103%.
`Cn1c(-c2csc(C3CCN(Cc4nc5ncccc5[nH]4)CC3)n2)nc2ccccc21` has a viability of 127%.
`CN(C)c1ncnc(-c2ccc3nc(Nc4cc(CN5CCN(C(=O)CC(F)(F)F)CC5)ccn4)[nH]c3c2)c1Cl` has a viability of 101%.
`C[C@H](NC(=O)Nc1cc2[nH]ncc2c(CO)n1)c1ccccn1` has a viability of 97.7%.
For `CN([C@@H]1CCc2c(CC(=O)O)c3ccccc3n2C1)S(=O)(=O)c1ccc(F)cc1`, the viability was 106%.
For `CCNC(=O)c1cc2c(N3CCOC[C@@H]3C)ccnc2[nH]1`, the viability was 110%.
`Cc1cnc(-c2cc(Cl)ccc2F)cc1-n1c(=O)n(CC(N)=O)c2cnccc21` gave a viability of 152%.
With `O=C(O)c1cc(-c2ccc(C3CCNCC3)cc2)c2ccc(-c3ccc(C(F)(F)F)cc3)cc2c1` the viability was 91.8%.

Study 2
Target: Homeodomain-interacting protein kinase 1 (HIPK1, Homo sapiens, UniProt Q86Z02)
Chain of UniProt Q86Z02 (whole entry, looked up): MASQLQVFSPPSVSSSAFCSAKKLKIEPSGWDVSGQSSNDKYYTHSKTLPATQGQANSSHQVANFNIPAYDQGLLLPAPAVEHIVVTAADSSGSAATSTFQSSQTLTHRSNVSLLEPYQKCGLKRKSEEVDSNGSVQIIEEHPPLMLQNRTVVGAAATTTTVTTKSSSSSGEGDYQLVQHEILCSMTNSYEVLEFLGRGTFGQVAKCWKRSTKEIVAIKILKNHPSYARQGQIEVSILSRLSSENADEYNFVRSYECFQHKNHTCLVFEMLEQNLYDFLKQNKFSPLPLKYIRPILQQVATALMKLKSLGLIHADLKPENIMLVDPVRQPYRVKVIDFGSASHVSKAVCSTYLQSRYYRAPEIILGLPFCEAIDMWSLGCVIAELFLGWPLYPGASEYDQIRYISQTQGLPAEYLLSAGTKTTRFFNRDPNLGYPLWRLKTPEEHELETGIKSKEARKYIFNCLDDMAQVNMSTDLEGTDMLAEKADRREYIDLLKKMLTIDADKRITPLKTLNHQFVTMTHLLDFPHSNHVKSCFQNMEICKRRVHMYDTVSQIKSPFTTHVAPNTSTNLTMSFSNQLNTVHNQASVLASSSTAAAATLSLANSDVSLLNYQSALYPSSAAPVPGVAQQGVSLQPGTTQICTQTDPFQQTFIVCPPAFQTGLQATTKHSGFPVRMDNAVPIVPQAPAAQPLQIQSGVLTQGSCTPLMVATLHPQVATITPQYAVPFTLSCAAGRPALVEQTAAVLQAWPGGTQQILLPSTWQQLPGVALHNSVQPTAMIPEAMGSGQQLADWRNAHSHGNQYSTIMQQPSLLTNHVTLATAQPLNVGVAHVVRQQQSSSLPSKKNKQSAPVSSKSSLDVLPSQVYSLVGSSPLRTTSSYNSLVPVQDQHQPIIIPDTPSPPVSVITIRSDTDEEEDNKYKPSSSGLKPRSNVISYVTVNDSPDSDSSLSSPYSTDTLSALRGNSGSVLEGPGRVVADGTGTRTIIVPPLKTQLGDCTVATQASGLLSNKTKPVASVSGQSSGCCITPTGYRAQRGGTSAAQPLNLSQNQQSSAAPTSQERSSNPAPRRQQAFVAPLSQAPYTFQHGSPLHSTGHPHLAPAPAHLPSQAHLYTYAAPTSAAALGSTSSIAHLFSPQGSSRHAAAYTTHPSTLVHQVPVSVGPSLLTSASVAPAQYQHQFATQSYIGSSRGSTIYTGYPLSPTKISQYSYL
Read-out: enzyme activity
Action: inhibitor
Concentration: 0.5 µM
Baseline: control
`c1cc(-c2cnn3cc(-c4ccc(OCCN5CCCCC5)cc4)cnc23)ccn1` gave a remaining activity of 97.1%.
`FC(F)(F)c1ccc(/C=C/c2nc(COc3ccc(CCCCn4ccnn4)cc3)co2)cc1` has a remaining activity of 101%.
`CCCCc1c(-c2ccc(O)cc2)[nH]c2nccnc12` gave a remaining activity of 97.7%.
`O=C(c1ccccc1)c1ccc(N2CCOCC2)cc1O` has a remaining activity of 104%.
`NC(=O)c1cccc(-c2cc(Nc3ccc(OC(F)(F)F)cc3)ncn2)c1` gave a remaining activity of 102%.
The remaining activity of `O=C1NC(=O)/C(=C/c2ccc3c(c2)OC(F)(F)O3)S1` is reported as 95.9%.
`COc1cc2c(Nc3ccc(Br)cc3F)ncnc2cc1OCC1CCN(C)CC1` gave a remaining activity of 96.7%.
The remaining activity of `CNc1cc2c(Nc3cccc(Br)c3)ncnc2cn1` is reported as 96.5%.
`NC(=O)c1ccc(-c2nc(-c3ccc4c(c3)OCCO4)c(-c3ccccn3)[nH]2)cc1` gave a remaining activity of 101%.
`CC(C)n1cnc2c(Nc3cccc(Cl)c3)nc(NCCO)nc21` gave a remaining activity of 99.8%.
The remaining activity of `O=C1c2ccccc2-c2nc3nnnn3nc21` is reported as 99.3%.
The remaining activity of `CC(C)(C)c1nc2c3cc[nH]c(=O)c3c3cc(F)ccc3c2[nH]1` is reported as 88.7%.
With `O=C(O)/C=C/c1cc(Br)c(Br)c(Br)c1Br` the remaining activity was 99.6%.
The remaining activity of `Nc1nc(Nc2ccc(S(N)(=O)=O)cc2)nn1C(=S)Nc1c(F)cccc1F` is reported as 105%.
`N#C/C(=C(/N)SC1C=CC=CC1)c1cccc(C(O)c2ccncc2)c1` (stereo not drawn) gave a remaining activity of 112%.
With `C[C@@H](N)[C@H]1CC[C@H](C(=O)Nc2ccncc2)CC1` the remaining activity was 104%.
`CC(C)N(CCC(=O)c1ccc2ccccc2c1)Cc1ccccc1` gave a remaining activity of 106%.
`CCN(CC)CCCCN1c2ccccc2Oc2ccc(Cl)cc21` gave a remaining activity of 106%.
For `Clc1ccc(Nc2nnc(Cc3ccncc3)c3ccccc23)cc1`, the remaining activity was 99.2%.

Study 3
Compound: CO[C@@H]1[C@H](N(C)C(=O)c2ccccc2)C[C@H]2O[C@]1(C)n1c3ccccc3c3c4c(c5c6ccccc6n2c5c31)C(=O)NC4
Action: inhibitor
Concentration: 1 µM
Myosin light chain kinase, smooth muscle (MYLK, Homo sapiens, UniProt Q15746); enzyme activity — inhibition: 69%.
It gave 0% for inhibition (Cyclin-dependent kinase-like 3 (CDKL3, Homo sapiens, UniProt Q8IVW4); enzyme activity).
Tyrosine-protein kinase Fes/Fps (FES, Homo sapiens, UniProt P07332); enzyme activity — inhibition: 10%.
Phosphatidylinositol 4-phosphate 5-kinase type-1 alpha (PIP5K1A, Homo sapiens, UniProt Q99755); enzyme activity — inhibition: 99%.
It gave 6% for inhibition (SNF-related serine/threonine-protein kinase (SNRK, Homo sapiens, UniProt Q9NRH2); enzyme activity).
It gave 0% for inhibition (Mitogen-activated protein kinase 4 (MAPK4, Homo sapiens, UniProt P31152); enzyme activity).
For Ribosomal protein S6 kinase alpha-4, N-terminal kinase domain (RPS6KA4, Homo sapiens, UniProt O75676): inhibition read 55%.
For Serine/threonine-protein kinase PLK3 (PLK3, Homo sapiens, UniProt Q9H4B4); enzyme activity: inhibition read 11%.
It gave 2% for inhibition (Serine/threonine-protein kinase MRCK gamma (CDC42BPG, Homo sapiens, UniProt Q6DT37); enzyme activity).
For Homeodomain-interacting protein kinase 1 (HIPK1, Homo sapiens, UniProt Q86Z02); enzyme activity: inhibition read 45%.
It gave 97% for inhibition (Activated CDC42 kinase 1 (TNK2, Homo sapiens, UniProt Q07912); enzyme activity).
The inhibition was 0% (Ephrin type-B receptor 4 (EPHB4, Homo sapiens, UniProt P54760); enzyme activity).
It gave 20% for inhibition (Phosphatidylinositol 4,5-bisphosphate 3-kinase catalytic subunit alpha isoform (PIK3CA, Homo sapiens, UniProt P42336, E545A); enzyme activity).
The inhibition was 84% (MAP/microtubule affinity-regulating kinase 4 (MARK4, Homo sapiens, UniProt Q96L34); enzyme activity).

Study 4
SMILES: Cc1ccc(NC(=O)c2ccnc(C(F)(F)F)c2)cc1-c1cc(OCCO)nc(N2CCOCC2)c1
Concentration: 1 µM
The remaining binding was 100% (Serine/threonine-protein kinase 16 (STK16, Homo sapiens, UniProt O75716); competitive binding panel; baseline: vehicle).
Cyclin-dependent kinase 2 homolog (CRK2, Plasmodium falciparum, UniProt P61075); competitive binding, DiscoverX scanMAX binding — remaining binding: 93%.
cGMP-dependent protein kinase 1 (PRKG1, Homo sapiens, UniProt Q13976); competitive binding panel; baseline: vehicle — remaining binding: 100%.
For Serine/threonine-protein kinase ICK (CILK1, Homo sapiens, UniProt Q9UPZ9); competitive binding scan: remaining binding read 94%.
It gave 97% for remaining binding (Tyrosine-protein kinase TXK (TXK, Homo sapiens, UniProt P42681); competitive binding panel; baseline: vehicle).
The remaining binding was 85% (Tyrosine-protein kinase ABL1 (ABL1, Homo sapiens, UniProt P00519, F317I); competitive binding panel; baseline: vehicle).
The remaining binding was 99% (Activin receptor type-1B (ACVR1B, Homo sapiens, UniProt P36896); competitive binding panel; baseline: vehicle).

Excerpt of the above (study 4):
For Serine/threonine-protein kinase ICK (CILK1, Homo sapiens, UniProt Q9UPZ9); competitive binding scan: remaining binding read 94%.
It gave 97% for remaining binding (Tyrosine-protein kinase TXK (TXK, Homo sapiens, UniProt P42681); competitive binding panel; baseline: vehicle).
The remaining binding was 85% (Tyrosine-protein kinase ABL1 (ABL1, Homo sapiens, UniProt P00519, F317I); competitive binding panel; baseline: vehicle).
